Measured values gathered from unrelated publications.
Protocols differ between the studies behind these lines. ± gives the spread as reported.

The chains behind the UniProt entries cited, without tags or fusion partners. A line that says so, or that is headed by a name, gives the form on record, which may keep a tag or linker. Residues count along the entry.
UniProt P30926, 22-498 limits assumed: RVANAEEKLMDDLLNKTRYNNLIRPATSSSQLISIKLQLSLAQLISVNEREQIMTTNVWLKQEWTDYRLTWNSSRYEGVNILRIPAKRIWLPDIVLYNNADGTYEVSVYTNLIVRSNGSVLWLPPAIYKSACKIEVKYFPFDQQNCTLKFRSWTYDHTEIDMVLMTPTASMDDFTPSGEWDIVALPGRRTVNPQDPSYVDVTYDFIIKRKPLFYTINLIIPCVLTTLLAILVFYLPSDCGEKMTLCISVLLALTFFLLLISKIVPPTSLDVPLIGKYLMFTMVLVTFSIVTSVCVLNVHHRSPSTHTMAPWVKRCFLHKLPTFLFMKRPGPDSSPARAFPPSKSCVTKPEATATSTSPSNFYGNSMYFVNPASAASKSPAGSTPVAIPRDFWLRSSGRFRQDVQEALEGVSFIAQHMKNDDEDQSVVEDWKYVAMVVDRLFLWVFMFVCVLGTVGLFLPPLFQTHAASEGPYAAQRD
UniProt P43681, 29-627 limits assumed: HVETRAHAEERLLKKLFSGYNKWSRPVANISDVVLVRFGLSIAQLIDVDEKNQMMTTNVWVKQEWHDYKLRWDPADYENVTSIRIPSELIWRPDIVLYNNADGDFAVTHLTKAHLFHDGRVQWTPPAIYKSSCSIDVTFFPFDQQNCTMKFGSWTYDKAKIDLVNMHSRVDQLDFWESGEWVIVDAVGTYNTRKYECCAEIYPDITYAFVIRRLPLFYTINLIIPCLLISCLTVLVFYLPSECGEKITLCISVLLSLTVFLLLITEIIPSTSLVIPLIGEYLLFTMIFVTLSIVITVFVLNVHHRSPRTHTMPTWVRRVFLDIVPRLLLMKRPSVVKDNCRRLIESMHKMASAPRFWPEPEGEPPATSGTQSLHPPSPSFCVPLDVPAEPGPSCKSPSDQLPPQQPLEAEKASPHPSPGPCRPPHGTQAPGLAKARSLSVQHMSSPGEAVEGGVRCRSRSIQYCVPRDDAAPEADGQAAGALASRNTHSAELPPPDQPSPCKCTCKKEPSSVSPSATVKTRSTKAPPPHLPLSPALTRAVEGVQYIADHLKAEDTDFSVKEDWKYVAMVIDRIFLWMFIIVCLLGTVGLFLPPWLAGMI
UniProt Q8NER1, whole entry: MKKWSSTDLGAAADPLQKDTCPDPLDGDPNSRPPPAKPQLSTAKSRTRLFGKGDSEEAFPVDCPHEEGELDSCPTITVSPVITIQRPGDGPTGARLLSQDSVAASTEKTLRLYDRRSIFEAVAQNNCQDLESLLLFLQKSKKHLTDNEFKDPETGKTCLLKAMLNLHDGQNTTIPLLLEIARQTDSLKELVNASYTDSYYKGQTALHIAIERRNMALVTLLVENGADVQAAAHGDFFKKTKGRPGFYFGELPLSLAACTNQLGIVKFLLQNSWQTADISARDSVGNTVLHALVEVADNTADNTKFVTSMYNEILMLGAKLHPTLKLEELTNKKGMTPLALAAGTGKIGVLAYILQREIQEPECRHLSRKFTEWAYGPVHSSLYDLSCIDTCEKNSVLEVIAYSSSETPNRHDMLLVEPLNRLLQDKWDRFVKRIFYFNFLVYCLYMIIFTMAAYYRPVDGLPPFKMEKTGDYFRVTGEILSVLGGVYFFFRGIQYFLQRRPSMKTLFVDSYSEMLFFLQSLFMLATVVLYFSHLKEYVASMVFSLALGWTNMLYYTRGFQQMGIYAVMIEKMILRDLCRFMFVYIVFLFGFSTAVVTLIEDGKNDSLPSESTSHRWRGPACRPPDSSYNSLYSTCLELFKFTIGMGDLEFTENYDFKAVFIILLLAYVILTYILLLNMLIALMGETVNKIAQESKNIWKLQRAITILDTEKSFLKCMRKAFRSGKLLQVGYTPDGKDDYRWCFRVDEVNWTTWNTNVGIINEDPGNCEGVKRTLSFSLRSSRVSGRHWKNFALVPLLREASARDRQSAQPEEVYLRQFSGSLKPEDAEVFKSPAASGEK
UniProt P14340, 281-571 limits assumed: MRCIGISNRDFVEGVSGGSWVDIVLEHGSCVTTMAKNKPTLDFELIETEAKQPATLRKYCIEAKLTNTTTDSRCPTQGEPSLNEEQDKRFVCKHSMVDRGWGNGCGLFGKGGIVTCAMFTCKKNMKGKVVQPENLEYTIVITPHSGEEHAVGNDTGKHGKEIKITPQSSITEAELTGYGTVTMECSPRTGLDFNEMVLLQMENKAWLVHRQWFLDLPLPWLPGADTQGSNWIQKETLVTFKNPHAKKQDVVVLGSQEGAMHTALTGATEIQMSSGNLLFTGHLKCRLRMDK
UniProt P37136, 32-614 limits assumed: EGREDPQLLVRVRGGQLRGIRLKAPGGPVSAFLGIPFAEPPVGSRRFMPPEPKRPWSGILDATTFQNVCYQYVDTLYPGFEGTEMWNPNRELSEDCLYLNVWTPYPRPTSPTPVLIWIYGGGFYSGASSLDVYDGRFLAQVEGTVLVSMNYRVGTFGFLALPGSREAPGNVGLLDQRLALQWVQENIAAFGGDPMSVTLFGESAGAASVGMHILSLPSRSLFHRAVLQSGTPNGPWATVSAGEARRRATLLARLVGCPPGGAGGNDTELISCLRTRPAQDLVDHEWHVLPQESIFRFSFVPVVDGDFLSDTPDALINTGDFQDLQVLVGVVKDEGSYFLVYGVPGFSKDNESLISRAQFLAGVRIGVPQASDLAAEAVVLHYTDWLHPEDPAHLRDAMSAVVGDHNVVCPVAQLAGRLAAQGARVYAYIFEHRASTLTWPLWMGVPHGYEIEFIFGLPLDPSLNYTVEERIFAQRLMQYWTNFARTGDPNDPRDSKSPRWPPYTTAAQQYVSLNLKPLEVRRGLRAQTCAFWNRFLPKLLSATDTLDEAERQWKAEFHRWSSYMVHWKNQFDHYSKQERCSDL
UniProt Q08210, whole entry E182D, looked up: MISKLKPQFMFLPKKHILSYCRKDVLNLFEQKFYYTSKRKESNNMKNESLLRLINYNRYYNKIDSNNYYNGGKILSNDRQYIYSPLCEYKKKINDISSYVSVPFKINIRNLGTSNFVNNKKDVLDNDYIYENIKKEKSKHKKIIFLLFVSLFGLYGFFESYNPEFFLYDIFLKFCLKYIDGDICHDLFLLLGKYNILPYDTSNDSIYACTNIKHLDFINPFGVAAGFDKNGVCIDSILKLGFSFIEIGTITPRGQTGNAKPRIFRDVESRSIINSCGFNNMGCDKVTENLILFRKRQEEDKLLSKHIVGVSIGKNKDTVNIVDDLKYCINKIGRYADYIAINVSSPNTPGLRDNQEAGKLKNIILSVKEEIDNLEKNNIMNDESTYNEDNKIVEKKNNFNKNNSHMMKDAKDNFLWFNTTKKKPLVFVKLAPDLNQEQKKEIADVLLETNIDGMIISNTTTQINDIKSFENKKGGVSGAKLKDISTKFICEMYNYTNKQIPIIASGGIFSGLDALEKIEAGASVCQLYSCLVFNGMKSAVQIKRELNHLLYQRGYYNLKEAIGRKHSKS
UniProt P53041, whole entry: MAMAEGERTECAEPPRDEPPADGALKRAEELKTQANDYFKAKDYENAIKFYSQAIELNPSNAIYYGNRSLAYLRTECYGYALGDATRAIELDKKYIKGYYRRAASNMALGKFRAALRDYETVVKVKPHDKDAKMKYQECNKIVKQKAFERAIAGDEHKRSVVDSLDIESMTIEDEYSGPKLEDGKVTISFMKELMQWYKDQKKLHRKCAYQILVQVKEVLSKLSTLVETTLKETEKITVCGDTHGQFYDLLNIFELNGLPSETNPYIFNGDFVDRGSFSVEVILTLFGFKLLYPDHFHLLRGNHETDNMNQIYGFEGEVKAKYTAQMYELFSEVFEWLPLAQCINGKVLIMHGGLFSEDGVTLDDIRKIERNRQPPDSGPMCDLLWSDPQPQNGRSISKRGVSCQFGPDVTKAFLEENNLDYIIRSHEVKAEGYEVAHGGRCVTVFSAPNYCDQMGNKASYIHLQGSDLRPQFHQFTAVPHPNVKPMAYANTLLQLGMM
UniProt P14867, 28-456 L291T limits assumed: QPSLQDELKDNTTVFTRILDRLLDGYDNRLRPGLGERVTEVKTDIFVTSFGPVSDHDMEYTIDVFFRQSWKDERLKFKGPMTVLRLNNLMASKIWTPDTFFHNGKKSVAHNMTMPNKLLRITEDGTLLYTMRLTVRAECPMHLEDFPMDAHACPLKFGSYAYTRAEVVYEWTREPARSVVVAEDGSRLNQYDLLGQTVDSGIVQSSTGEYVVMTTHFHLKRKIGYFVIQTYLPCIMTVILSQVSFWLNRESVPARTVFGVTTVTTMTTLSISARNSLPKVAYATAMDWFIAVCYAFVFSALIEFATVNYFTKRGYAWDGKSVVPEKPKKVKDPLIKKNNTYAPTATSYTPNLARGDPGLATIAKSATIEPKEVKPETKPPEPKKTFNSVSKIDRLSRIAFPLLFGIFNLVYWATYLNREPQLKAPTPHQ
UniProt P05556, 21-798 limits assumed: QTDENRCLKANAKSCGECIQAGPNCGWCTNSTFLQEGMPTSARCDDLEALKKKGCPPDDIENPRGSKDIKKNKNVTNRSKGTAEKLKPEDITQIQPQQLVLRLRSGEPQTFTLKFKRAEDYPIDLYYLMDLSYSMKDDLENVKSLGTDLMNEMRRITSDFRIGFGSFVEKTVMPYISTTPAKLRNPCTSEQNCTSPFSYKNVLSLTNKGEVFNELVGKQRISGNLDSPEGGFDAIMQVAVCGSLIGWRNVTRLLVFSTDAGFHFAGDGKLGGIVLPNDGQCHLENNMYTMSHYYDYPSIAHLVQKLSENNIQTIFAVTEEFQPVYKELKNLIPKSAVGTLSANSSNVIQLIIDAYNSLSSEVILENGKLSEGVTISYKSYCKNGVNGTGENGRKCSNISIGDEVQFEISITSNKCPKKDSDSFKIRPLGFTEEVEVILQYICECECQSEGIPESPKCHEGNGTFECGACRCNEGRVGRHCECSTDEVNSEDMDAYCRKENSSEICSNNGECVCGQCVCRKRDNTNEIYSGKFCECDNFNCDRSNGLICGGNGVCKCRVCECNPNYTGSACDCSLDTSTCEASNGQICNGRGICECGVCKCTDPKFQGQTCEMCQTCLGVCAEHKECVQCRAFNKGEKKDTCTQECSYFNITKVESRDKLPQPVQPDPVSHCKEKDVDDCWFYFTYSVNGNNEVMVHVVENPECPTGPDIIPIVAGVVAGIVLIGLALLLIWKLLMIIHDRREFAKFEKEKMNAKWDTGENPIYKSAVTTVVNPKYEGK
UniProt O07911, 1-430: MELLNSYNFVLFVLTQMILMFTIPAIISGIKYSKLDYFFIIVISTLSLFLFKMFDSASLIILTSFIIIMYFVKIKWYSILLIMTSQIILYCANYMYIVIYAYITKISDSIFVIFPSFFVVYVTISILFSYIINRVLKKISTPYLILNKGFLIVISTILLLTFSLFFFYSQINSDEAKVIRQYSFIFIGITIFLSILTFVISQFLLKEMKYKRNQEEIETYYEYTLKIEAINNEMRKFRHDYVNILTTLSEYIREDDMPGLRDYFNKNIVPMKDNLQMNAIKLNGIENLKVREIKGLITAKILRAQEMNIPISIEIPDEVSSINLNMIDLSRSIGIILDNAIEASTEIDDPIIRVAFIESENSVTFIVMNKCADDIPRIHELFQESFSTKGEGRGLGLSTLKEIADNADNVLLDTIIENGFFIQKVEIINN
UniProt Q9Y2R2, whole entry, looked up: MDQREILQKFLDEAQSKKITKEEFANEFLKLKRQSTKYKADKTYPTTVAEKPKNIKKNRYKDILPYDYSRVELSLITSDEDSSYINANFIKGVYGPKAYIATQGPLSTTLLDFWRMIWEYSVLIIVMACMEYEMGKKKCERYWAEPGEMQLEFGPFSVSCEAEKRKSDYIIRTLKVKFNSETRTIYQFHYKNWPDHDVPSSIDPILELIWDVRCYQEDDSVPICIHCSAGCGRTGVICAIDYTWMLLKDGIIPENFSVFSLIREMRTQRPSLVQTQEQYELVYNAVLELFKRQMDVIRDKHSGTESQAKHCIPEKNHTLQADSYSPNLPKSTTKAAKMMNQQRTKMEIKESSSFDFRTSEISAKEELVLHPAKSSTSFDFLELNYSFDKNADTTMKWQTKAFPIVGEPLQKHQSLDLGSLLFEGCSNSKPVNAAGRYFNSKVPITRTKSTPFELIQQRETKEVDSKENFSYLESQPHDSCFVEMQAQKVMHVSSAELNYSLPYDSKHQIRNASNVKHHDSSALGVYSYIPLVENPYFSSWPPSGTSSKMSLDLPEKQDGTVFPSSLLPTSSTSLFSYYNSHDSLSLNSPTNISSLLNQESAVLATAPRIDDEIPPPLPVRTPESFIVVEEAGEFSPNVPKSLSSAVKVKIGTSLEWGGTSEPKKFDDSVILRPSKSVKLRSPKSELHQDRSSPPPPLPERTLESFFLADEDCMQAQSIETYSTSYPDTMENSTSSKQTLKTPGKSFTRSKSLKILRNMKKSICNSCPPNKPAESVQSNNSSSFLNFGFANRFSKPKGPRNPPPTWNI
UniProt P10636, with tags, fused parts or gaps DEL597-597 limits assumed: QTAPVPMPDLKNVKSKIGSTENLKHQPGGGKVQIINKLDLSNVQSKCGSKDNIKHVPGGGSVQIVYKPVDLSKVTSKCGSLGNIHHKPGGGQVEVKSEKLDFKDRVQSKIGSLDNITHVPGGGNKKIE
UniProt P0DOF5, whole entry: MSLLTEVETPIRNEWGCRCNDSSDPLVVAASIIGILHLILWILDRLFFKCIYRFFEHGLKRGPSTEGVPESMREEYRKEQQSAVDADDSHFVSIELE

CC[C@H](C)[C@@H]1NC(=O)[C@H](CCC(=O)O)NC(=O)[C@@H]2CCCN2C(=O)[C@H](Cc2c[nH]cn2)NC(=O)[C@H](CCCNC(=N)N)NC(=O)[C@H](C(C)C)NC(=O)[C@H](CC(N)=O)NC(=O)[C@@H]2CSSC[C@H](NC(=O)CN)C(=O)N[C@@H](CSSC[C@@H](C(N)=O)NC1=O)C(=O)N[C@@H](CO)C(=O)N[C@@H](Cc1c[nH]cn1)C(=O)N1CCC[C@H]1C(=O)N[C@@H](C(C)C)C(=O)N2
IC50 (Neuronal acetylcholine receptor; alpha4/beta4 (Homo sapiens, UniProt P30926+P43681); ion current, antagonist, two-electrode voltage clamp; Xenopus oocytes; human, added: ACh 300 µM): 4.01 µM

Oc1ccc(Cl)cc1Sc1cc(Cl)ccc1O
IC50 (Protein disulfide-isomerase (P4HB, Homo sapiens, UniProt P07237)): > 100 µM

CCCCC(CCCC)Oc1nc(C(F)(F)F)ccc1CNC(=O)C(C)c1ccc(NS(C)(=O)=O)c(F)c1 (stereo not shown)
IC50 (Transient receptor potential cation channel subfamily V member 1 (TRPV1, Homo sapiens, UniProt Q8NER1); ion current, antagonist, FLIPR; CHO cells expressing TRPV1; added: low pH): 1 to 10 µM

Cc1nc2c(C(=O)N(C)Cc3ccccc3)c[nH]n2c(=O)c1Cc1ccc(Cl)cc1
IC50 (Genome polyprotein, envelope domains I-II (Dengue virus type 2, UniProt P14340)): > 10 µM

N=C(N)c1ccc(C(NC(=O)COCC(=O)NCCCOCCOCCOCCCNC(=O)CCCC[C@@H]2SC[C@@H]3NC(=O)N[C@@H]32)P(=O)(Oc2ccccc2)Oc2ccccc2)cc1 (stereo partly shown)
IC50 (Prothrombin (F2, Homo sapiens, UniProt P00734); enzyme activity, inhibitor, fluorogenic substrate; 4 h preincubation, pH 8.0, added: 0.5 nM enzyme): 0.097 ± 0.01 µM

CCOC(=O)c1c(-c2ccc(Cl)cc2Cl)n(-c2nc(-c3ccc(Cl)cc3)c3c(NC(=O)c4ccccc4)nnc-3[nH]2)[nH]c1=O
CC50 (MDA-MB-435; SRB): 9.91 µM

COP(=O)(OC)Oc1ccc([N+](=O)[O-])cc1Cl
IC50 (Acetylcholinesterase (Ache, Rattus norvegicus, UniProt P37136); enzyme activity, inhibitor; rat, postnatal day 1, rat brain homogenate; 15 min, 37 °C): 0.175 µM

O=C(CSc1nccn1C1CCCCC1)Nc1cc(C(F)(F)F)ccc1Cl
IC50 (Dihydroorotate dehydrogenase (quinone), mitochondrial (PFF0160c, Plasmodium falciparum, UniProt Q08210, E182D); enzyme activity, inhibitor, DCIP colorimetric): > 10 µM

CN1CCN(C(c2ccccn2)c2cc(Cl)c3cccnc3c2O)CC1 (stereo not shown)
IC50 (Serine/threonine-protein phosphatase 5 (Homo sapiens, UniProt P53041); phosphatase activity, inhibitor; preincubation ~10 min at 23 °C, added: radiolabelled phosphorylase A): > 50 µM

CCOC(=O)c1cccn1C(C)c1ccncc1 (stereo not shown)
EC50 (GABA-A receptor alpha-1/beta-3, with gamma-2 subunit (GABRA1/GABRB3, Homo sapiens, UniProt P14867+P28472, L291T); ion current, agonist, two-electrode voltage clamp; Xenopus laevis oocytes; relative to: 100 µM GABA): 335 ± 36 µM

C[C@@H]1NC(=O)[C@H](CCC(=O)O)NC(=O)CNC(=O)[C@H](CC(=O)O)NC(=O)CNC(=O)[C@H](CCCCN)NC(=O)[C@@H](Cc2ccc(O)cc2)NC1=O [isotope labelled]
IC50 (Integrin alpha2/beta1 (Homo sapiens, UniProt P05556+P17301); binding, competitive cell binding; A549; 1 h, pH 7.4, room temperature, added: 68Ga-DOTA-A2B1): 3.72 ± 0.21 µM

CC(C)C[C@@H]1NC(=O)[C@H](CO)NC(=O)[C@H](CO)NC(=O)[C@@H](NC(=O)CCc2cn(CCOCCOCCOCCOCCOCCOCCOCCO)nn2)CSC(=O)[C@H](Cc2ccccc2)NC1=O
IC50 (Receptor-histidine kinase AgrC (agrC, Staphylococcus aureus, UniProt O07911); Agr quorum sensing, antagonist, fluorescence reporter; Staphylococcus aureus, agr-deleted reporter strain, solution; added: AIP-I 100 nM): 3.1 µM

Cc1cc(I)cc(C)c1Oc1ccnc(Nc2ccc(C#N)cc2)n1
IC50 (Gag-Pol polyprotein, reverse transcriptase (gag-pol, Human immunodeficiency virus 1, UniProt P03366); dGTP incorporation opposite C (mismatch), inhibitor; 15 min, 37 °C, added: dNTP 5 µM): 0.009 ± 0.003 µM

CN(C(=S)SSC(=S)N(C)C1CCS(=O)(=O)C1)C1CCS(=O)(=O)C1 (stereo not shown)
IC50 (Tyrosine-protein phosphatase non-receptor type 22 (PTPN22, Homo sapiens, UniProt Q9Y2R2); phosphatase activity, inhibitor; pH 6.5, enzyme 5 nM, added: DiFMUP 1.5 µM): 34 ± 3 µM

CC(C)C[C@@H](NC(=O)[C@@H](CO)NC(=O)[C@@H](Cc1c[nH]cn1)NC(=O)[C@@H](CC(C)C)NC(=O)[C@@H](CCCNC(=N)N)NC(=O)[C@@H](CC(C)C)NC(=O)[C@@H](CC(C)C)NC(=O)[C@H](NC(=O)[C@H]1CCCN1C(=O)[C@@H](C)N)[C@H](C)O)C(=O)NCC(=O)N[C@H](C)C(=O)O
IC50 (Microtubule-associated protein tau, repeat domain ΔK280 (MAPT, Homo sapiens, UniProt P10636, del597-597); aggregation, inhibitor, thioflavin S fluorescence; 24 h, pH 7.0, 37 °C, added: heparin): 5.9 µM

C1CCC2(CC1)CCNCC2
IC50 (Matrix protein 2 (Influenza A virus, UniProt P0DOF5); viral replication; Udorn): 0.9 ± 0.1 µM

N#Cc1c(-c2ccc(Cl)cc2Cl)n(-c2nc(-c3ccc(Cl)cc3)c3c(NC(=O)c4ccccc4)nnc-3[nH]2)[nH]c1=O
CC50 (U-251; SRB): > 100 µM

Cc1cn([C@@H]2CC[C@H](OC(C(=O)O)P(=O)(O)O)C2)c(=O)[nH]c1=O (relative stereo)
IC50 (DNA polymerase catalytic subunit (Varicella-zoster virus, UniProt P09252); enzyme activity, inhibitor; added: poly(dA)·oligo(dT)): 38 ± 16 µM

O=C(Nc1cccc(C2=NCCN2)c1)c1ccc(-c2ccc(C(=O)Nc3cccc(C4=NCCN4)c3)cc2)cc1
membrane potential change (Trypanosoma brucei; safranine fluorescence; procyclic form; 5 µM, unit not given; higher = stronger uncoupling): 81 ± 2.9

A few entries again:
C1CCC2(CC1)CCNCC2
IC50 (Matrix protein 2 (Influenza A virus, UniProt P0DOF5); viral replication; Udorn): 0.9 ± 0.1 µM

CC[C@H](C)[C@@H]1NC(=O)[C@H](CCC(=O)O)NC(=O)[C@@H]2CCCN2C(=O)[C@H](Cc2c[nH]cn2)NC(=O)[C@H](CCCNC(=N)N)NC(=O)[C@H](C(C)C)NC(=O)[C@H](CC(N)=O)NC(=O)[C@@H]2CSSC[C@H](NC(=O)CN)C(=O)N[C@@H](CSSC[C@@H](C(N)=O)NC1=O)C(=O)N[C@@H](CO)C(=O)N[C@@H](Cc1c[nH]cn1)C(=O)N1CCC[C@H]1C(=O)N[C@@H](C(C)C)C(=O)N2
IC50 (Neuronal acetylcholine receptor; alpha4/beta4 (Homo sapiens, UniProt P30926+P43681); ion current, antagonist, two-electrode voltage clamp; Xenopus oocytes; human, added: ACh 300 µM): 4.01 µM
